# Published values from different studies.
# Each line is one published result; not all experiments were run side by side. Several values in a cell are separate wells, animals, samples, runs or records. Numbers after ± are the reported error.
# Chain of UniProt P08684 (whole entry, looked up): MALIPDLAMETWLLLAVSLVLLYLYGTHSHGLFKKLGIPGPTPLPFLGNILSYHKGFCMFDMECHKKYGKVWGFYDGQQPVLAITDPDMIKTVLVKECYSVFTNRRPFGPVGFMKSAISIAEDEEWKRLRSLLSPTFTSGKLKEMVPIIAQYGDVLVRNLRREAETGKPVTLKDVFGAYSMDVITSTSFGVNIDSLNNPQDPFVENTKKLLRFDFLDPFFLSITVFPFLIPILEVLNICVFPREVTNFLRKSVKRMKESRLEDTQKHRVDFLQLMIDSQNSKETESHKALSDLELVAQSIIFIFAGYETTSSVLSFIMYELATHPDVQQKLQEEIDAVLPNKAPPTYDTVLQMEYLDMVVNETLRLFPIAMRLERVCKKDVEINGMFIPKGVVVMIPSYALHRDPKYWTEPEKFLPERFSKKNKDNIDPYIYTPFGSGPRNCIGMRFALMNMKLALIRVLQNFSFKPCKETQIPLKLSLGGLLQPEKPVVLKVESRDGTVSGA
# Chain of UniProt Q13043 (whole entry, looked up): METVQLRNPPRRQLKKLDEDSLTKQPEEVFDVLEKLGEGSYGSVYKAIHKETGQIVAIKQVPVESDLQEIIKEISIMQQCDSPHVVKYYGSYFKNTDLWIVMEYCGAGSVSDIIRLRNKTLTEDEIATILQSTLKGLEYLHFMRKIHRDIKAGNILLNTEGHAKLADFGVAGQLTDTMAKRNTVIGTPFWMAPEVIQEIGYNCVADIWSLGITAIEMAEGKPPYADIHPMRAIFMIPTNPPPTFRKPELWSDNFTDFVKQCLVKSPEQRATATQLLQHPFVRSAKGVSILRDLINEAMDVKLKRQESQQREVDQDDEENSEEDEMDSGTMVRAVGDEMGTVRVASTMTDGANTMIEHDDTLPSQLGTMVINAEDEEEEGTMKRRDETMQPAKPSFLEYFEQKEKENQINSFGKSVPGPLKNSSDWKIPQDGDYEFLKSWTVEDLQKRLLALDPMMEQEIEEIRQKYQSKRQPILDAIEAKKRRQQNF
SMILES,target or system,assay,test system,conditions,how to read,measurement,value
Cc1c(C(=O)O)ccc2c3n(nc12)[C@@H]1[C@H](C3)N(CC2CC2)[C@@]2(C(=O)Nc3cc(Cl)ccc32)[C@H]1c1cccc(Cl)c1F,,,"athymic nude mice, female, sample A PDX subcutaneous, subcutaneous tumour","oral, 1 mg/kg, 24 h",,concentration,0.032 µM
CN(C(=O)n1cnc(-c2ccc[n+]([O-])c2)c1)[C@H]1CC[C@H](O)CC1,,,"Wistar rat, pons","oral, 10 mg/kg/day of BIA 10-2474, 72 h, repeated 5 days",,concentration,9.6 ± 0.5 ng/g
O=C(N[C@H](Cc1c[nH]c2ccccc12)C(=O)Nc1ccncc1)c1ccc(-c2ccc(F)c(C(F)(F)F)c2)cc1F,,,"Swiss Webster mouse, female, lung","oral, 50 mg/kg, 2 h, 20% HPβCD vehicle",,concentration,13 µM
Cn1cc(-c2ccc(-c3cncc(Cl)c3N3CCC4(CCNC4=O)CC3)cc2)cn1,COLO 205,"gene expression, microarray, item: ABCC3 mRNA",,"concentration not given, 6 h",baseline: untreated cells,log2 fold change,3.77
CN[C@H](CC(C)C)C(=O)N[C@H]1C(=O)N[C@@H](CC(N)=O)C(=O)N[C@H]2C(=O)N[C@H]3C(=O)N[C@H](C(=O)N[C@H](C(=O)O)c4cc(O)cc(O)c4-c4cc3ccc4O)[C@H](O)c3ccc(c(Cl)c3)Oc3cc2cc(c3O[C@@H]2O[C@H](CO)[C@@H](O)[C@H](O)[C@H]2O[C@H]2C[C@](C)(N)[C@H](O)[C@H](C)O2)Oc2ccc(cc2Cl)[C@H]1O,,E-AB sensor,"male C57BL/6J mice, hippocampus","intravenous, 35 mg/kg, 4 h",,concentration,2.7 ± 0.9 µM
CCc1cc(C(=O)NC)c2nccc(N3CCc4c(cc(Cn5ccnc5)cc4-c4cn(C)nc4C(F)(F)F)C3=O)c2c1,,,"Sprague Dawley rat, male, plasma","oral, 50 mg/kg once daily, 7 days, toxicokinetic satellite group",,MRT(0-inf),2.5 h
CC(C)C[C@H](NC(=O)C[C@H](O)[C@H](CC(C)C)NC(=O)[C@H](Cc1c[nH]cn1)NC(=O)CNC(=O)[C@@H](NC(=O)[C@H](C)NC(=O)[C@H](Cc1c[nH]c2ccccc12)NC(=O)[C@H](CCC(N)=O)NC(=O)[C@@H](Cc1ccccc1)NC(=O)COCCOCCNC(=O)CN1CCN(CC(=O)O)CCN(CC(=O)O)CCN(CC(=O)O)CC1)C(C)C)C(N)=O [lutetium-177 labelled],,,"female BALB/c nu/nu mice, tumor","intravenous, 50 pmol, 1 h",,tissue uptake,10 ± 2 %ID/g
Cc1cc([C@@H](C)Nc2ccccc2C(=O)O)c2nc(N3CCC(F)(F)CC3)c(C#N)c(=O)n2c1,,,"NOD-SCID mice, HCC1954 xenograft","intraperitoneal, 120 mg/kg once daily, 1 h",,concentration,56600 ng/mL
O=C(N[C@H](Cc1c[nH]c2ccccc12)C(=O)Nc1ccncc1)c1ccc(N2CCN(c3ccc(F)cc3F)CC2)cc1F,,,"Swiss Webster mouse, female, plasma","oral, 50 mg/kg, 8 h, 20% Kolliphor vehicle",,concentration,2.08 µM
NC/C(=C\F)COc1cccc(Cn2c(=S)[nH]c(=O)c3[nH]cnc32)c1,,,"C57BL/6J mice, heart","oral, 15 mg/kg single, 1 h",,concentration,131 ng/mL
CN(C(=O)n1cnc(-c2cccnc2)c1)C1CCCCC1,,,"Wistar rat, medulla oblongata","oral, 10 mg/kg/day of BIA 10-2474, 4 h, repeated 5 days",,concentration,31.1 ± 7.9 ng/g
Cc1cc(Nc2ncnc3ccc(NC4=NC(C)(C)CO4)cc23)ccc1Oc1ccn2ncnc2c1,"Cytochrome P450 3A4 (CYP3A4, Homo sapiens, UniProt P08684)",,"human, plasma","oral, 300 mg, day 1, single dose alone",,"AUC(0-inf), mean",3510 ng·h/mL
CCc1c(-c2ccccc2)c(-c2ccccc2)nn1-c1ccccc1-c1cccc(OCC(=O)O)c1,,,"Sprague-Dawley rat, large intestine homogenate","oral, 10 mg/kg, 1 h",,concentration,163 ng/mL and 204 ng/mL
C=C(NC(=O)c1nccc(OC)c1O)C(=O)O[C@@H](C)[C@H](O)[C@@H](Cc1ccccc1)C(=O)O,,,"lactating goat, female, kidney","oral, 21.3 mg/kg/day, 5 days, phenyl-labelled",,concentration,4 ng/g
O=C(N[C@H](Cc1c[nH]c2ccccc12)C(=O)Nc1ccncc1)c1ccc(-c2ccc(F)c(Cl)c2)cc1F,,,"Swiss Webster mouse, female, fat","oral, 50 mg/kg, 8 h, 20% HPβCD vehicle",,concentration,5.69 µM
CC[C@@H]1[C@H](F)C(=O)N[C@@H]1COc1nccc2cc(C(N)=O)c(OC)cc12,"Serine/threonine-protein kinase 4 (STK4, Homo sapiens, UniProt Q13043)","ATP-site probe binding, ActivX profiling, item: MST1",THP-1 cell lysate,"0.04 mM, Lys1 site",,inhibition,-5.2%
O=C(N[C@H](Cc1c[nH]c2ccccc12)C(=O)Nc1ccncc1)c1ccc(-c2cc(C(F)(F)F)ccc2F)cc1F,,,"Swiss Webster mouse, female, liver","oral, 50 mg/kg, 8 h, 20% Kolliphor vehicle",,concentration,4940 µM
Cc1cc(Nc2ccc(S(F)(F)(F)(F)F)cc2)n2nc(C(C)(F)F)nc2n1,Plasmodium falciparum,LC-MS/MS,"malaria patients, plasma","oral, 250 mg",,Cmax,4250 ng/mL

# A few entries again:
SMILES,target or system,assay,test system,conditions,how to read,measurement,value
O=C(N[C@H](Cc1c[nH]c2ccccc12)C(=O)Nc1ccncc1)c1ccc(-c2ccc(F)c(Cl)c2)cc1F,,,"Swiss Webster mouse, female, fat","oral, 50 mg/kg, 8 h, 20% HPβCD vehicle",,concentration,5.69 µM
CC[C@@H]1[C@H](F)C(=O)N[C@@H]1COc1nccc2cc(C(N)=O)c(OC)cc12,"Serine/threonine-protein kinase 4 (STK4, Homo sapiens, UniProt Q13043)","ATP-site probe binding, ActivX profiling, item: MST1",THP-1 cell lysate,"0.04 mM, Lys1 site",,inhibition,-5.2%
